Results pooled from the literature.
Changes are numbered by the printed parent chain. Numbers after ± are the reported error.
LiaR D191N: LiaR D191N (Enterococcus faecalis, UniProt R3G073)
P1: ABI1; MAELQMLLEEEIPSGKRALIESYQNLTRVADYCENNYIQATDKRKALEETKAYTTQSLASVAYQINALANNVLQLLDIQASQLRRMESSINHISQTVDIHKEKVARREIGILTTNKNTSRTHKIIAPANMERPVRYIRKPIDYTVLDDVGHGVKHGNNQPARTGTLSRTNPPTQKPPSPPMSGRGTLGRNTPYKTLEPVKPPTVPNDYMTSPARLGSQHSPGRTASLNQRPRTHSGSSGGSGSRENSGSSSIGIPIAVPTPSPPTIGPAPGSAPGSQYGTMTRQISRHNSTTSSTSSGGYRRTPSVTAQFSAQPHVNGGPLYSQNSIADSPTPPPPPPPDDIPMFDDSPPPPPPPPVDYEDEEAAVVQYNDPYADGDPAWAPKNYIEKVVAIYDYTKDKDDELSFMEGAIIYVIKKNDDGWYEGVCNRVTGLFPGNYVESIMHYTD
Sequence of UniProt Q6QGH9 (whole entry, looked up): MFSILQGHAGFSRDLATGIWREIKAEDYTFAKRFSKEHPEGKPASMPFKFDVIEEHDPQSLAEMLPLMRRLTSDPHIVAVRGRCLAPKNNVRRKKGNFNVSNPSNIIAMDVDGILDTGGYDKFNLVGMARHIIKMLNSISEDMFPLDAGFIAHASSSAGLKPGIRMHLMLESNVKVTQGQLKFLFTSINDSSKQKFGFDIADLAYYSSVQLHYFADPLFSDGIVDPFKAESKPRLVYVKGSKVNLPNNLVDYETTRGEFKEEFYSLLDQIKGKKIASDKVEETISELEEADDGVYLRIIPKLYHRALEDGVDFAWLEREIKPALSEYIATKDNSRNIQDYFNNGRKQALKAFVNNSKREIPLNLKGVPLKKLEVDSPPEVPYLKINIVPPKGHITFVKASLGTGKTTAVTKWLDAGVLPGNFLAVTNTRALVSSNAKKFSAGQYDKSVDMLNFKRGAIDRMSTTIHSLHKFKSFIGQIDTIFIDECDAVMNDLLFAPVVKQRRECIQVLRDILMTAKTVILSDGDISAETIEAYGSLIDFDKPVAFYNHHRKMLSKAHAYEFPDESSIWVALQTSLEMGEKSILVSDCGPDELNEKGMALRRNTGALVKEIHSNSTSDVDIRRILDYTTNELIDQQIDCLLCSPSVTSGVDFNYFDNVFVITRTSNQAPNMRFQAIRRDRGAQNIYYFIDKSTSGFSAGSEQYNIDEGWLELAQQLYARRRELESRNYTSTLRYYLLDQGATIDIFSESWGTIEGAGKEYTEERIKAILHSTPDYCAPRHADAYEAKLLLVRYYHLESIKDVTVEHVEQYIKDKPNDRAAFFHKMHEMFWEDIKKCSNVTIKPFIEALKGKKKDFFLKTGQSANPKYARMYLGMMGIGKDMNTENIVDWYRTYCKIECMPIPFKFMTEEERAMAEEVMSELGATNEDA

With `ACTAGTCCTTACTAATGAGAAGAAAT (dsDNA)` the Kd was 21.9 ± 4.5 µM (LiaR D191N; MST; double-stranded DNA, one strand shown).
`RNA polymerase II CTD 19-residue peptide (Homo sapiens) (sequence not shown)` gave a Kd of 355 µM (RPRD2 CID, to residue 161 (Homo sapiens, UniProt Q5VT52); ITC; read off a plot).
`DNA 1 TTTTTTTTTTTTTTTCGAATTCGAGCTCGGTACCC / DNA 2 GGGTACCGAGCTCGAATTCG (dsDNA; 20 bp, 5' dT15 overhang)` — result for binding: “no binding” (D2 helicase 1-928 (Escherichia phage T5, UniProt Q6QGH9); EMSA; 0.1 nM, without ATP/Mg2+).
`ACTAGTCCTTACTAATGAGAAGAAATCGTTCTTAAGTCCTATGACA (dsDNA)` gave a Kd of 0.63 ± 0.04 µM (LiaR D191N; MST; double-stranded DNA, one strand shown).
With `TATTTAGTTAGATATCTAACTAAATA (dsDNA (Staphylococcus aureus); blunt, self-complementary)` the Kd was 1 µM (MarR family regulatory protein full length assumed A103V (Staphylococcus aureus, UniProt Q5Y812); ITC; double-stranded DNA, one strand shown).
The Kd of `AGAAATCGTTCTTAAGTCCTATGACA (dsDNA)` is reported as 4.13 ± 0.48 µM (LiaR D50E (Enterococcus faecalis, UniProt R3G073); MST; double-stranded DNA, one strand shown).
For `RNA polymerase II CTD 19-residue peptide, phosphoserine S2 (Homo sapiens) (sequence not shown)`, the Kd was 8.4 µM (RPRD1A CID (Homo sapiens); ITC; read off a plot).
With `CATTTAGGGCTAAAGTCCTATGGTAACCTGA (dsDNA)` the Kd was 2.8 ± 0.3 µM (LiaR D50E/D191N (Enterococcus faecalis, UniProt R3G073); MST; double-stranded DNA, one strand shown).
With `P1 K416Q` the relative binding was 1.9 (WASL (Homo sapiens); co-IP; read off a plot; baseline: unchanged protein, higher = more binding).

Excerpt of the above:
For `RNA polymerase II CTD 19-residue peptide, phosphoserine S2 (Homo sapiens) (sequence not shown)`, the Kd was 8.4 µM (RPRD1A CID (Homo sapiens); ITC; read off a plot).
